Experimental data pooled from the literature.
Each line is one published result; not all experiments were run side by side. pIC50: −log10 of the molar value.
Cell line: Jurkat

C=C/C(=C/C(=O)C[C@H](C)C[C@@H](C)CC[C@H](O)[C@H](C)C(=O)CC(O)[C@H](C)[C@@H](C)OC(=O)CCC1=C(C)C(=O)OC1=O)CC (stereo partly drawn)  inhibition (IL-2 production; 20 µM, 24 h, with: anti-CD3/anti-CD28 antibodies): 98%
O=C1c2cccc3cccc(c23)C12NC(Cc1ccc(O)cc1)C([N+](=O)[O-])C2c1ccc(Br)cc1 (stereo not drawn)  pIC50 (cell growth or viability, MTT; 48 h): 4.48
C1=CCCC=CCC1.F[P-](F)(F)(F)(F)F.[Pt+][c]1ccccc1P(=Nc1ccccc1)(c1ccccc1)c1ccccc1  cells with decreased ΔΨm (concentration not given, 24 h): 80%
C=C/C(=C/C(=O)C[C@H](C)C[C@@H](C)CC[C@H](O)[C@H](C)C(=O)/C=C/[C@H](C)[C@@H](C)O)CC  inhibition (IL-2 production; 20 µM, 24 h, with: anti-CD3/anti-CD28 antibodies): 98%
CC(C)C[C@@H]1NC(=O)[C@H](CC(C)C)NC(=O)[C@H](Cc2ccccc2)NC(=O)[C@@H]2CSSC[C@@H](C(=O)O)NC(=O)[C@H](CSSC[C@H](N)C(=O)N3CCC[C@H]3C(=O)N2)NC(=O)CNC1=O  cell adhesion (inhibitor; concentration not given, with: von Willebrand factor): inhibited
Cc1ccc(C(C)C)cc1.O=C(N=P(c1ccccc1)(c1ccccc1)c1ccccc1)c1ccccn1.[Cl-].[Cl-].[Ru+2]  selectivity ratio (MTT; baseline: IC50 RPTC over IC50 Jurkat): 17.7 fold
O=C1c2cccc3cccc(c23)C12NC(Cc1ccc(O)cc1)C([N+](=O)[O-])C2c1ccccc1 (stereo not drawn)  apoptotic cells (annexin V-FITC/PI flow cytometry; IC50, 24 h): > 89%
Cc1ccc(C(C)C)cc1.[Cl-].[Cl-].[Ru+2].c1ccc(P(=Nc2cccc3cccnc23)(c2ccccc2)c2ccccc2)cc1  cells with ΔΨm loss (flow cytometry; concentration not given): 40%
C(=C/c1ccccc1)/c1ccccc1  lowest effective concentration (apoptosis, refers to: caspase-3 activity; 24 h, lowest dose with significant induction; baseline: vehicle): 10 µM
O=C1c2cccc3cccc(c23)C12NC(Cc1ccc(O)cc1)C([N+](=O)[O-])C2c1ccc(Cl)cc1 (stereo not drawn)  pIC50 (cell growth or viability, MTT; 24 h): 4.18
CC(C)C[C@@H](NC(=O)[C@@H](CC(C)C)NC(=O)[C@@H](CO)NC(=O)[C@@H](Cc1c[nH]cn1)NC(=O)[C@@H](CC(C)C)NC(=O)[C@@H](CO)NC(=O)[C@@H](CCCNC(=N)N)NC(=O)[C@@H](CO)NC(=O)[C@H](N)Cc1ccccc1)C(=O)NCC(=O)NCCCCCC(=O)N[C@H](CCCNC(=N)N)C(=O)N[C@H](CCCNC(=N)N)C(=O)N[C@H](CCCNC(=N)N)C(=O)N[C@H](CCCNC(=N)N)C(=O)N[C@H](CCCNC(=N)N)C(=O)N[C@H](CCCNC(=N)N)C(=O)N[C@H](CCCNC(=N)N)C(=O)N[C@H](CCCNC(=N)N)C(=O)NCC(=O)N[C@@H](CS)C(=O)O  dead cells (propidium iodide uptake; 10 µM, 1 h, 37 °C): 20 to 30%
Cc1[nH][n+]([Pt-2]([Cl])([n+]2[nH]c(C)c(CSCc3ccccc3)c2C)[n+]2[nH]c(C)c(CSCc3ccccc3)c2C)c(C)c1CSCc1ccccc1.[Cl-]  apoptotic cells (annexin V/7-AAD flow cytometry; 1.5 µM): 37.6%
